Results collected from several papers.
Every numbered part comes from another study and shows a few of its results, in no order.

Series 1
Target: Sal-like protein 4, full length isoform A (SALL4, Homo sapiens, UniProt Q9UJQ4, residues 1-1053)
Sequence of UniProt Q9UJQ4 (whole entry, looked up): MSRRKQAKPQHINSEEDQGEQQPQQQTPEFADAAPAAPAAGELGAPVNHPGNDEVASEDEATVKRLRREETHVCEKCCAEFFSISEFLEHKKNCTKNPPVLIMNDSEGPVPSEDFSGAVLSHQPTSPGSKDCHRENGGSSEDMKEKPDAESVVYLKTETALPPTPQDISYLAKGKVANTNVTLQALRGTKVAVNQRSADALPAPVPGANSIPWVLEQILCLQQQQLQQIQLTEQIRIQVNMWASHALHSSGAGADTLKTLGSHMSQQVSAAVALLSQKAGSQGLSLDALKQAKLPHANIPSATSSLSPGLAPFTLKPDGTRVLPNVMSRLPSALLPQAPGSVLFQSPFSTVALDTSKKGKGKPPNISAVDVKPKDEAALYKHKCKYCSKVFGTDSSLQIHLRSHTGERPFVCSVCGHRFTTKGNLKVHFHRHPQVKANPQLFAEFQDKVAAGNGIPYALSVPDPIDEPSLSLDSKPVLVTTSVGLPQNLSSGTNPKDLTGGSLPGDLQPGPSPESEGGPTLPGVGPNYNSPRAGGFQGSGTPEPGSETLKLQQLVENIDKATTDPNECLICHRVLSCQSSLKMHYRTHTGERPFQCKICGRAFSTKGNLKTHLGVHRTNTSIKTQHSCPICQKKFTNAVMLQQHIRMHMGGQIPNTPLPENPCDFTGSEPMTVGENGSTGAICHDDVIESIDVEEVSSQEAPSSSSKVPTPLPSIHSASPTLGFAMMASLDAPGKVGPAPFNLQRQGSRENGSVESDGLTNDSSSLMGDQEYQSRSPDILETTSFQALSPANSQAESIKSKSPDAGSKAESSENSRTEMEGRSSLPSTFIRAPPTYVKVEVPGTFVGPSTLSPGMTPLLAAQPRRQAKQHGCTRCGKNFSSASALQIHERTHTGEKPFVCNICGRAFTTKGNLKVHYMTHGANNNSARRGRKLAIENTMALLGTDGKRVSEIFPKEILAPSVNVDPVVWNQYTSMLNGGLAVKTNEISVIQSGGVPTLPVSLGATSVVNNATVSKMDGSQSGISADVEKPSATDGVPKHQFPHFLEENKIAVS
Method: universal PBM
Molecule type: double-stranded DNA, one strand shown
Sample: in vitro
Tested at: 600 nM
Notes: 8-mer, flanks averaged, mean of replicates
Reading: higher = stronger binding
Oligonucleotide	E-score
CGGTAGAC	-0.0137
ATCACCAT	0.0956
GGCAACAC	0.0215
GCCTTCCC	-0.221
TCTCCGAA	-0.0701
GCTTCGCA	-0.0969
ATTCCACA	0.182
CCTGTTGC	-0.0373
ATGAACTG	0.181
CCTGCACA	-0.152
ATTGCCAC	0.101
AGCAGCCG	-0.317
GTTCATAA	0.372
CCTGATCG	-0.206
AGTTCGTC	0.012
AAACTCCT	-0.109
ACCAGAAT	0.0398
ATGCTTTC	0.169
AGCAAGAA	0.17
CTACACTA	0.153
CCACTGAG	-0.207
CATCCATA	0.253
GATTGGCA	0.00988
ACGCATAA	0.203
CCGAGGAA	-0.297

Series 2
Target: PABPC1L2, full length, GST fusion (mouse, UniProt A0ABA7IW68)
Method: RNAcompete
Molecule type: RNA
Sample: in vitro
Tested at: 20 nM
Notes: 7-mer, probes averaged, single round
Relative to: mean of 7-mers
Reading: higher = stronger binding
Target sequence (chain): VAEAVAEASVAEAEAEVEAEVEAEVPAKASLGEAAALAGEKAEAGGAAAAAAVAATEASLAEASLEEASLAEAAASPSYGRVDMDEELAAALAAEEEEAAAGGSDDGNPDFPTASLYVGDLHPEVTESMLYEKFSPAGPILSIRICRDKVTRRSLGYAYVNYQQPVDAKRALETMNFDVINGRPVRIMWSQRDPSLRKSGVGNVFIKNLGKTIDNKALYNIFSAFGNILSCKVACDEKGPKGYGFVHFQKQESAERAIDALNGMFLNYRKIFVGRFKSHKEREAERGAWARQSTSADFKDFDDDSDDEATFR
Oligonucleotide	7-mer Z-score
CUGAGUA	-0.121
CGGGACU	0.253
GCAGGAC	0.287
GCAUGAG	0.0805
GUCGUAU	-0.354
CAGAUCG	-0.021
AAAAGUU	4.84
AUGGGCU	0.0714
UUGCUUC	-0.376
GUGCUGU	-0.13
UCUACGC	-0.331
ACCGCCU	-0.229
AUAUAGU	-0.11
AUCAACC	-0.119
GCGUUUG	-0.434
UGAAAUU	-0.0772
CGUGAGU	-0.371
CAUUUAG	0.378
CCAAUUA	-0.0428
CUAACAA	0.126
UAGAAUC	-0.0627

Series 3
Target: RING finger protein unkempt homolog, zinc fingers 1-6, GST-SBP tag (UNK, Homo sapiens, UniProt Q9C0B0, residues 30-357)
Method: RNA Bind-n-Seq
Molecule type: RNA
Sample: in vitro
Tested at: not given
Notes: RNA with constant flanks, human and mouse sites, ends assumed
Relative to: input RNA pool
Reading: higher = stronger binding
Target sequence (chain): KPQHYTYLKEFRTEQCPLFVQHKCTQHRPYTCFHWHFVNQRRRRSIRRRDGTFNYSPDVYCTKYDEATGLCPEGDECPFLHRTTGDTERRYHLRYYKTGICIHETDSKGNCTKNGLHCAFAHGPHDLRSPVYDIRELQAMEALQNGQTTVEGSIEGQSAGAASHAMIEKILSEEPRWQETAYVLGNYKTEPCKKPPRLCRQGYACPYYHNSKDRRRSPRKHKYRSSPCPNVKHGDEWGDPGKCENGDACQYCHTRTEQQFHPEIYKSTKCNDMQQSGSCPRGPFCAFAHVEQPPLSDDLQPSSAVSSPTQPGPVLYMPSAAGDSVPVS
Oligonucleotide	bound/input enrichment [ratio]
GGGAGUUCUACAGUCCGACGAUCACAGGCCGUGGUUAGGAAGGACGGAGAAGGGGCGUUCGCUCCUUUGGGACUUUUCAUGCCUCGUUUUUUUUUCAGAUGUGGCUUGGUCUGGGCGCAAGGUCCCAGCAGCCAGCUUAAGCUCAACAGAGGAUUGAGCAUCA	0.115
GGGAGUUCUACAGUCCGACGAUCAUUGCAACAAAUGGAGAAAGUGCUGUAGUGCAAUUACCAAAAAAUGGCCCCAUUUAUGAUGUAGUUUGGAAUUCUAGUUCUACUGAGUUUUGUGCUGUAUAUGGUUUUAUGCCUGCCAAACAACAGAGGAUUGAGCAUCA	0.367
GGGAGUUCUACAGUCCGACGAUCGACCGCAUUGUGCCAGUGGACAUCUAUGUGCCAGGCUGCCCGCCCACGGCCGAAGCACUCCUUUAUGGCAUCUUGCAGCUGCAACGGAAGAUCAAGCGUGAACAGAAGCUGAAGAUCUGGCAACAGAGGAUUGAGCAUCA	0.098
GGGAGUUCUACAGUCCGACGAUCGACAUCCCACUGUUUCCAGUGCAGUCCAAGUACAUGGAUGUGGUCAAGGAGCGGAUCCGUCUAGCCCGACAGAUUGAAAAAGCUGAAUACCGGAACUUCCAGGCUUGUCUGCACAACUCACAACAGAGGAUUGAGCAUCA	0.0874
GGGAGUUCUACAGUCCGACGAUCUGCCGAGCUGCGUCACGUCAUGACGAACCUGGGGGAGAAGCUGACAGAUGAGGAAGUGGAUGAGAUGAUCCGAGAGGCCGACAUUGAUGGAGAUGGCCAGGUCAAUUAUGAAGAGUUUGUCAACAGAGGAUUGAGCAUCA	0.274
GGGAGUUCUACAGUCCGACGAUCUUUAUCAGAACACUUCUGGCUGUUACAAGACCAUUUAUUAGCUCGAAAUUCAGCCAAAAAAUUAGAUACGUGUUUAAUUUGGCAGAACUAGCAGAACUUGUCCCCAUGGAAUACGUUGGCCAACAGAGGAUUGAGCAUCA	0.762
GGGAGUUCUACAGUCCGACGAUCUCUGGCCAUGGCCCCUCUGCCAAGCCUGUGUGCGAUGCCCUUGGUGCUUUAGUGCAAGAAGCCUAGGCUCAGAAGCACAGCAGCGCCAUCUUUCCGUUUCAGGGGUUGUGAUGAAGGCCACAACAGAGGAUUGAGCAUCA	0.116
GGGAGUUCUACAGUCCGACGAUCCUACCUGAAGUGACUGAUGAGUAUAAAAAUGAUGUAAAAAACAGAUCUGUUUAUAUUAAAGGCUUCCCAACUGAUGCAACUCUUGAUGACAUAAAAGAAUGGUUAGAAGAUAAAGGUCAACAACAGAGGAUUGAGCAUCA	0.273

Series 4
Target: Interferon regulatory factor 7, full length, phosphomimetic (IRF7, Homo sapiens, UniProt Q92985, residues 1-503, S101K/S471D/S472D/S475D/S476D/S477D/S483D/S484D/S487D)
Sequence of UniProt Q92985 (whole entry, unmodified, looked up): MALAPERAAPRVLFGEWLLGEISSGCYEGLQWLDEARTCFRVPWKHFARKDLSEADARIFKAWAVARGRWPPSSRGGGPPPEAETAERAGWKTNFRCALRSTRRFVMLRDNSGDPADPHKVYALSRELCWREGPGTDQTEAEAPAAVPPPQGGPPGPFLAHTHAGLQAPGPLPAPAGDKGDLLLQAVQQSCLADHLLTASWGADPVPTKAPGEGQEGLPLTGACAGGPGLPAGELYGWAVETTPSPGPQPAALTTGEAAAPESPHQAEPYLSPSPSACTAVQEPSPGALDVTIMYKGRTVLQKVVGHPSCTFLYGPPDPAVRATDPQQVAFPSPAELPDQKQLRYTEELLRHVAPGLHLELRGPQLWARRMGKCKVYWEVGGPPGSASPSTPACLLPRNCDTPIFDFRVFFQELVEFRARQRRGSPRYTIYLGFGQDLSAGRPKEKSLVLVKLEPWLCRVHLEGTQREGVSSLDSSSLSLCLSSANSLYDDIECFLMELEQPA
Method: protein-binding microarray
Molecule type: double-stranded DNA, one strand shown
Sample: in vitro
Tested at: 250 nM
Notes: 60-bp whole probe
Added: salmon DNA 0.4 mg/ml
Relative to: random background probes
Reading: higher = stronger binding
Constant ends, left off below: GCCTAGCAC … GTCTTGATTCGCTTGACGCTGCTG
Oligonucleotide	log fluorescence [z-score]
GACGGTTTCGGGACTGGGAACGTGCTA	4.78
GACGGTATCGGGTAACGGGACGTGCTA	0.181
AGAAGATAAGCTGCAAGAAAGTGCTAG	-0.882
GACGGTATCGGGTTTCGGGGCGTGCTA	2.09
TTAGATCTCAGCCTGGATTAGTGCTAG	-0.136
AGATGCCAAGAGGCATGATGGTGCTAG	-0.413
GACGGTCTCGGGATCGGGACGTGCTAG	1.02
GAGGGTCTCCTTTTCCTGACGTGCTAG	0.719
TTTTCAGCATCGCTCAGCACGTGCTAG	0.602
GGTCCTCTGGGCTGTTTGGCCGTGCTA	-0.567
GACGAATTGGGGTATCGAGACGTGCTA	-0.107
GACGGTTTCGGGACTGGGGCCGTGCTA	3.39
GGGTCTTCAGGTTCTCCCCCAGTGCTA	0.123
TGAAATTTTAATAACACAGAGTGCTAG	-0.283
TCTTCTGGTGTGTCTGAAGAGTGCTAG	0.0553
TTAGGTATCGACTTTCGGTAAGTGCTA	1.74
TGAACTTGGAATTTCCCTCTGTGCTAG	0.029
TTAGTTTTCGGGACTGGGTTAGTGCTA	1.19
GACTGACTGGGTATCGGGACGTGCTAG	-0.0992

A few entries again (series 1):
Oligonucleotide	E-score
ACGCATAA	0.203
GGCAACAC	0.0215
AGCAAGAA	0.17
GCTTCGCA	-0.0969
CCTGCACA	-0.152
AGCAGCCG	-0.317
ACCAGAAT	0.0398
ATTCCACA	0.182
ATGAACTG	0.181
ATTGCCAC	0.101
